Results collected from several papers.
Compare with care: the assays were run in different laboratories. ± gives the spread as reported.
OPRM1: Mu-type opioid receptor (OPRM1, Homo sapiens, UniProt P35372)
UniProt P35372, sequence (whole entry, looked up): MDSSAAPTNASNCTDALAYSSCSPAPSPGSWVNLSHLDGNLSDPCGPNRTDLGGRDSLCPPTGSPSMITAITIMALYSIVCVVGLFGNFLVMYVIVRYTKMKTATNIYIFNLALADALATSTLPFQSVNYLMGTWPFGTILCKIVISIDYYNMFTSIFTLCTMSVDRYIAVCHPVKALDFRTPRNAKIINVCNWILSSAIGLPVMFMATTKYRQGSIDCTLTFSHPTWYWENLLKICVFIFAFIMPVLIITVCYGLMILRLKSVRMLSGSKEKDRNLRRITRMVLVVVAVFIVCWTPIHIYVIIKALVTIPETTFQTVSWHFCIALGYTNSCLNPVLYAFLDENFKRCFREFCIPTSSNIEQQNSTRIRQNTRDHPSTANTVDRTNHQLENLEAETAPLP
UniProt P43220, sequence (whole entry, looked up): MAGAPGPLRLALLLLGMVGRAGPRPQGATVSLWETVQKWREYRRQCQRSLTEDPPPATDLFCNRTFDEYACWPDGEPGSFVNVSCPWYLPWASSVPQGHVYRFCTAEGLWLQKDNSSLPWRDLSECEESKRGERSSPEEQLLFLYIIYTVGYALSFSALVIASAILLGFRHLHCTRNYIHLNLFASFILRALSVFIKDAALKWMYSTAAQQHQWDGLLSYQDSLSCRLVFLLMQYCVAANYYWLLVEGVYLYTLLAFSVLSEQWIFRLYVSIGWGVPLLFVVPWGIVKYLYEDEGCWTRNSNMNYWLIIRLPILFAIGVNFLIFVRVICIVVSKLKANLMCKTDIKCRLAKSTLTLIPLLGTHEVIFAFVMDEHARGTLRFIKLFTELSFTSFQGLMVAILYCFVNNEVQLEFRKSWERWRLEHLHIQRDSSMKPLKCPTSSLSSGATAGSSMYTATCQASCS
UniProt P33535, sequence (whole entry, looked up): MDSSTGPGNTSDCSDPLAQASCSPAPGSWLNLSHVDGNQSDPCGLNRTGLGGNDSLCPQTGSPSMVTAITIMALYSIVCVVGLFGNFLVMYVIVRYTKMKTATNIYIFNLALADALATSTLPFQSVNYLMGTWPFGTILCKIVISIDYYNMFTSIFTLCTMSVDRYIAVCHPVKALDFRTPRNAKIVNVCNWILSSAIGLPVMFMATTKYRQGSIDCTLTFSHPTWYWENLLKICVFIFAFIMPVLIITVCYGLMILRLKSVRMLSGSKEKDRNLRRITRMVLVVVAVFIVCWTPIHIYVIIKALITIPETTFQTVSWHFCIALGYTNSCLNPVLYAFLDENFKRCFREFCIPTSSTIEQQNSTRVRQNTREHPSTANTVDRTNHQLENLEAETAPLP
UniProt P48736, sequence (whole entry, looked up): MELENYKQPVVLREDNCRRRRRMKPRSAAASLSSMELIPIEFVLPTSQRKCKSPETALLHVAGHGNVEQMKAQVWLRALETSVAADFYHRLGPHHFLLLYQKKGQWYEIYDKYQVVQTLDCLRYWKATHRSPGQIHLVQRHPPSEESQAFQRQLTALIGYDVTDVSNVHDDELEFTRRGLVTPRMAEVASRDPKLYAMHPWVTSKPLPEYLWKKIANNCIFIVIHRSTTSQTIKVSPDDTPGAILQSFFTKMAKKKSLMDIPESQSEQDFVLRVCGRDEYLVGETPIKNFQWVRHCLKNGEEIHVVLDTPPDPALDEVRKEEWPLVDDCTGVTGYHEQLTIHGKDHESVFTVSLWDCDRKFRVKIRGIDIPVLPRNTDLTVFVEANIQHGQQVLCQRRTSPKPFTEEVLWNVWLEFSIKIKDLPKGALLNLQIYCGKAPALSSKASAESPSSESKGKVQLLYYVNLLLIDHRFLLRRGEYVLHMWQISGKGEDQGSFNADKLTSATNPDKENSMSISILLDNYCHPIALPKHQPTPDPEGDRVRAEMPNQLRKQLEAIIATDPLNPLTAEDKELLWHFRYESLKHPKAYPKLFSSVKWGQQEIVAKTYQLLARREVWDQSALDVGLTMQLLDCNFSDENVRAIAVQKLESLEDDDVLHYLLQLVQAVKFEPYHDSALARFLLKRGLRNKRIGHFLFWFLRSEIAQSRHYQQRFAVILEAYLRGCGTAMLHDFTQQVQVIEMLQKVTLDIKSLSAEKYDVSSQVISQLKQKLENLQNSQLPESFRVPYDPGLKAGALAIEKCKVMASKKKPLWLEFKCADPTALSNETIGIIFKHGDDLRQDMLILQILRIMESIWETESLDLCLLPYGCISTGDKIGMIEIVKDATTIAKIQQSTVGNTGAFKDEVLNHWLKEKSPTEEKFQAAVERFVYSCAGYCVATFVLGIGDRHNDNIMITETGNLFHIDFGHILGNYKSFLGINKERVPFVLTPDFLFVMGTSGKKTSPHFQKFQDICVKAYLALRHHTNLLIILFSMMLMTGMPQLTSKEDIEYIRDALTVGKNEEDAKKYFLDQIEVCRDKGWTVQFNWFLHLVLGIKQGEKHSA
UniProt P34975, sequence (whole entry, looked up): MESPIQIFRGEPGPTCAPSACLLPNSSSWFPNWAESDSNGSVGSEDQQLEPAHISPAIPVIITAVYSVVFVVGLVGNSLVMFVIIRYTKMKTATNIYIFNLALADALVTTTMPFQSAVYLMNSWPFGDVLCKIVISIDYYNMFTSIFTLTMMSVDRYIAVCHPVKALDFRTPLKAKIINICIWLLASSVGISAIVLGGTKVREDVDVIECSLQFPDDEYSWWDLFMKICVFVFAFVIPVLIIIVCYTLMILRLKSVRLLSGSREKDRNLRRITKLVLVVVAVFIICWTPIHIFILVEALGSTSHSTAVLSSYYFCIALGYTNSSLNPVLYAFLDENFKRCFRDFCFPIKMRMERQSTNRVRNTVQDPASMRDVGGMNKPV
UniProt Q8NER1, sequence (whole entry, looked up): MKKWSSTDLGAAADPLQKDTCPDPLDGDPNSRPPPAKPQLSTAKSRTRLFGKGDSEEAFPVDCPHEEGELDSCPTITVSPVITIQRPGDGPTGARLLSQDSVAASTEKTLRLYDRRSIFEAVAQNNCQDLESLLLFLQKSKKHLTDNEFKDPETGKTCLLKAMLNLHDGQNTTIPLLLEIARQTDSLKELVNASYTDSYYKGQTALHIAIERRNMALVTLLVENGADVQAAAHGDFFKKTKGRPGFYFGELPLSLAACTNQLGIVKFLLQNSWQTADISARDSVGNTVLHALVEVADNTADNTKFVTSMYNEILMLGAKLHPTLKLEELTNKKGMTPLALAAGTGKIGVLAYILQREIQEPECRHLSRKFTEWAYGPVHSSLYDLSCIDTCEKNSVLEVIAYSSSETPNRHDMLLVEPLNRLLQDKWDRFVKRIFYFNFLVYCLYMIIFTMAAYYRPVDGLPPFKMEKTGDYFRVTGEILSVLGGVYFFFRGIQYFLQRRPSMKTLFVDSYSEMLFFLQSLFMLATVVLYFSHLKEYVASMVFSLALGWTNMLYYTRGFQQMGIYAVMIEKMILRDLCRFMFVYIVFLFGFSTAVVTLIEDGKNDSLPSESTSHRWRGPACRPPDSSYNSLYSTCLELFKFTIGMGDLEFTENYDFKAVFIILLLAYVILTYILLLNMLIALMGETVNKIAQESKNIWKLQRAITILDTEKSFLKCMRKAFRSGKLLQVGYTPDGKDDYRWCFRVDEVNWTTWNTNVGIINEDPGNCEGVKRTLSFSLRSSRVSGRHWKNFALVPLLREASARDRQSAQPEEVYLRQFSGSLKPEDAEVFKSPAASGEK
UniProt Q0P543, sequence (whole entry, looked up): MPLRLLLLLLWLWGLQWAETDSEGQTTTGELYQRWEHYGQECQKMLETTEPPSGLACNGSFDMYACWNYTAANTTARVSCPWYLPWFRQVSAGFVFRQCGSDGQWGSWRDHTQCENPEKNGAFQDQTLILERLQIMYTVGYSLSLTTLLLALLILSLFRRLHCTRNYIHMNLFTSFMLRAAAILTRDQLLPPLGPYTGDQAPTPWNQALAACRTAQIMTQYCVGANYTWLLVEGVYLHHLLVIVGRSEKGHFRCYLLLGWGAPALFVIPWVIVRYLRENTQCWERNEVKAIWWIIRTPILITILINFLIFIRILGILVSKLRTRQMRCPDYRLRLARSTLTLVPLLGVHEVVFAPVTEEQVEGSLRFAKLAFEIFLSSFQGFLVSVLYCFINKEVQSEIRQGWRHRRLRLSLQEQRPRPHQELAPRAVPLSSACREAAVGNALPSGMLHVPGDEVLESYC
UniProt P41145, sequence (whole entry, looked up): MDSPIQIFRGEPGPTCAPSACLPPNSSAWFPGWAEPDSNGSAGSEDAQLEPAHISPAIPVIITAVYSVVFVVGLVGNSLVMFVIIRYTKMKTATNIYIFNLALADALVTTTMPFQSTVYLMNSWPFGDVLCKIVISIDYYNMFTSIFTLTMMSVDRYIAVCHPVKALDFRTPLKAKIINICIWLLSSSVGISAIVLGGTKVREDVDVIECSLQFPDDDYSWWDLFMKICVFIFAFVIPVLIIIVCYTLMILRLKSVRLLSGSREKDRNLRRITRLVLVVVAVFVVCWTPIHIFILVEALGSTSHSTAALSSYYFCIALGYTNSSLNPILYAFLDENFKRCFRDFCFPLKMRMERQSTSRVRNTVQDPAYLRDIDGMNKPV
UniProt P20309, sequence (whole entry, looked up): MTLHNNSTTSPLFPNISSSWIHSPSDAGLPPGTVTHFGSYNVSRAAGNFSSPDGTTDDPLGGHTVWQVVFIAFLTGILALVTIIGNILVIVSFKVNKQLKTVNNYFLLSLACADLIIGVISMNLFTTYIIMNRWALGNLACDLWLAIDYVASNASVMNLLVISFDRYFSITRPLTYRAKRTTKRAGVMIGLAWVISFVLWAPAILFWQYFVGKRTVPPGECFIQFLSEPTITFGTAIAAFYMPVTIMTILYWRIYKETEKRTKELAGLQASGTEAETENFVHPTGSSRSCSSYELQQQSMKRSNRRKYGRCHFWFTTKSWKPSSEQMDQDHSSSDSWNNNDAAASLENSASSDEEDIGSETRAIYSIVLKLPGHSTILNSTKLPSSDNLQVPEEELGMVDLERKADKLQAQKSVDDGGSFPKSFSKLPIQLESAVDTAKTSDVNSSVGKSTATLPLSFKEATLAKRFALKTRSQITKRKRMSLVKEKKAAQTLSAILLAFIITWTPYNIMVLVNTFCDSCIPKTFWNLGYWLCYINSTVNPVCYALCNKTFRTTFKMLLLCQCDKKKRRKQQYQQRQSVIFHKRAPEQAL

With `CC(C)C[C@H](NC(=O)[C@H](CO[C@@H]1O[C@H](CO)[C@@H](O[C@@H]2O[C@H](CO)[C@H](O)[C@H](O)[C@H]2O)[C@H](O)[C@H]1O)NC(=O)[C@H](CCCCN)NC(=O)[C@H](CC(C)C)NC(=O)CNC(=O)[C@H](CCCCN)NC(=O)[C@H](CCC(=O)O)NC(=O)[C@H](C)NC(=O)[C@H](CC(C)C)NC(=O)[C@H](CC(N)=O)NC(=O)[C@@H]1CCCN1C(=O)[C@H](CC(C)C)NC(=O)[C@H](Cc1ccccc1)NC(=O)CNC(=O)[C@H](NC(=O)[C@@H](N)Cc1ccc(O)cc1)[C@H](C)O)C(N)=O` the Ki was 9.6 ± 0.18 nM (OPRM1; radioligand displacement; CHO membranes; 60 min, pH 7.5, 25 °C, with: 0.25 nM [3H]DAMGO).
For `C[Si](C)(C)C[C@@H](CN)CC(=O)O`, the inhibition was 4% (TRPV1 (Homo sapiens, UniProt Q8NER1); ligand displacement, radioligand; 75 µM).
With `Cc1cc(O)cc(C)c1C[C@H](N)C(=O)NCC(=O)NCC(=O)N[C@@H](Cc1ccccc1)C(=O)N[C@H](C(=O)NCC(=O)N[C@@H](C)C(=O)N[C@@H](CCCNC(=N)N)C(=O)N[C@@H](CCCCN)C(=O)N[C@@H](CO)C(=O)N[C@@H](C)C(=O)N[C@@H](CCCNC(=N)N)C(=O)N[C@@H](CCCCN)C(N)=O)[C@@H](C)O` the Emax was 191 ± 26% (OPRK1 (Homo sapiens, UniProt P41145); calcium mobilization, agonist; CHO cells expressing Gαqi5 chimera; reference: basal).
`C[C@H](Nc1ncnc(N)c1C#N)c1c(-c2ccccc2)[nH]c2c(Cl)cccc2c1=O` has a selectivity ratio of 131 (PIK3CG (Homo sapiens, UniProt P48736); enzyme activity; reference: IC50 PIK3CG over PI3Kδ).
For `CC[C@H](C)[C@H](N)C(=O)N[C@@H](CO)C(=O)N[C@@H](Cc1ccccc1)C(=O)N[C@@H]1CSCc2ccc(cc2)-c2ccc(cc2)CSC[C@@H](C(=O)N[C@@H](CCC(=O)O)C(=O)N[C@@H](CO)C(=O)NCC(=O)N[C@@H](CO)C(N)=O)NC(=O)[C@H](Cc2ccc(O)cc2)NC(=O)[C@H](Cc2ccc(O)cc2)NC(=O)[C@H](CC(=O)O)NC(=O)[C@H](CC(C)C)NC(=O)[C@H](CC(C)C)NC(=O)[C@H](CCC(=O)O)NC1=O`, the kon was 744 M⁻¹ s⁻¹ (env (Human immunodeficiency virus type 1 group M subtype B, UniProt P35961); binding, SPR).
With `CSCC[C@@H]1NC(=O)[C@H](Cc2ccccc2)NC(=O)CNC(=O)[C@H](NC(=O)[C@@H](N)Cc2ccc(O)cc2)CSSC[C@@H](C(=O)N[C@@H](Cc2c[nH]c3ccccc23)C(=O)NCc2cc(C(F)(F)F)cc(C(F)(F)F)c2)NC(=O)[C@@H]2CCCN2C1=O` the Emax was 36% (Oprm1 (Rattus norvegicus, UniProt P33535); GTPγS binding, agonist, radiometric; cell membranes).
`CC[C@H](C)[C@H](NC(=O)[C@H](CCCNC(=N)N)NC(=O)[C@H](CCCNC(=N)N)NC(=O)[C@H](CC(C)C)NC(=O)[C@H](Cc1ccccc1)NC(=O)CNC(=O)CNC(=O)[C@@H](N)Cc1ccc(O)cc1)C(=O)N[C@@H](CCCNC(=N)N)C(=O)N1CCC[C@H]1C(=O)N[C@@H](CCCCN)C(=O)N[C@@H](CC(C)C)C(=O)N[C@@H](CCCCN)C(N)=O` has an efficacy of 1 (Oprk1 (Rattus norvegicus, UniProt P34975); cAMP inhibition; CHO; unit not given, with: 50 µM forskolin; reference: dynorphin A(1-13) amide).
The Ki of `CC(C)C[C@H](NC(=O)[C@H](CO[C@@H]1O[C@H](CO)[C@@H](O[C@@H]2O[C@H](CO)[C@H](O)[C@H](O)[C@H]2O)[C@H](O)[C@H]1O)NC(=O)[C@H](CCCCN)NC(=O)[C@H](CC(C)C)NC(=O)[C@H](C)NC(=O)[C@H](CCCCN)NC(=O)[C@H](CCC(=O)O)NC(=O)[C@H](C)NC(=O)[C@H](CC(C)C)NC(=O)[C@H](CC(N)=O)NC(=O)[C@@H]1CCCN1C(=O)[C@H](CC(C)C)NC(=O)[C@H](Cc1ccccc1)NC(=O)CNC(=O)[C@H](NC(=O)[C@@H](N)Cc1ccc(O)cc1)[C@H](C)O)C(N)=O` is reported as 11 ± 1.4 nM (OPRM1; radioligand displacement; CHO membranes; 60 min, pH 7.5, 25 °C, with: 0.25 nM [3H]DAMGO).
The CC50 of `C[C@@H]1CCCN1CCc1cc2cc(-c3ccc(C#N)cc3)ccc2o1` is reported as 68500 ± 13300 nM (J774A.1; alamarBlue).
With `CC[C@H](C)[C@H](NC(=O)[C@H](C)NC(=O)[C@@H](NC(=O)[C@H](CC(=O)O)NC(=O)[C@H](CCCCN)NC(=O)[C@H](CO)NC(=O)[C@@H](NC(=O)[C@H](CC(N)=O)NC(=O)[C@H](C)NC(=O)[C@@H](NC(=O)[C@H](CCC(=O)O)NC(=O)[C@H](CCCCN)NC(=O)[C@@H](NC(=O)[C@@H](NC(=O)[C@H](Cc1c[nH]cn1)NC(=O)[C@H](CCCCN)NC(=O)[C@@H](NC(=O)[C@H](CCCCN)NC(=O)[C@H](CCCCN)NC(=O)[C@@H](NC(=O)[C@H](CC(C)C)NC(=O)[C@H](CCCCN)NC(=O)[C@H](CC(N)=O)NC(=O)[C@H](Cc1ccccc1)NC(=O)[C@H](CCCNC(=N)N)NC(=O)[C@H](CCCCN)NC(=O)[C@H](CCCNC(=N)N)NC(=O)[C@H](Cc1ccccc1)NC(=O)CN)C(C)C)C(C)C)[C@@H](C)O)[C@@H](C)CC)[C@@H](C)O)C(C)C)C(C)C)C(=O)N[C@H](C(=O)N[C@@H](C)C(=O)NCC(=O)N[C@@H](CO)C(=O)NCC(=O)N[C@H](C(=O)N[C@@H](C)C(=O)N[C@H](C(=O)NCC(=O)N[C@@H](C)C(=O)N[C@@H](C)C(=O)N[C@@H](CCSC)C(N)=O)C(C)C)C(C)C)C(C)C` the inhibition was 44% (CHRM3 (Homo sapiens, UniProt P20309); antagonist, CEREP off-target panel; 10 µM).
`CC[C@H](C)[C@H](NC(=O)[C@H](CCCCN)NC(=O)[C@H](CC(=O)O)NC(=O)[C@H](CC(C)C)NC(=O)[C@H](Cc1ccc(O)cc1)NC(=O)[C@@H](NC(=O)[C@H](CO)NC(=O)[C@H](Cc1ccc(O)cc1)NC(=O)[C@H](CC(=O)O)NC(=O)[C@H](CO)NC(=O)[C@@H](NC(=O)[C@H](Cc1ccccc1)NC(=O)[C@@H](NC(=O)CNC(=O)[C@H](CCC(=O)O)NC(=O)C(C)(C)NC(=O)[C@H](Cc1ccc(O)cc1)NC(=O)[C@@H](N)[C@@H](C)O)[C@@H](C)O)[C@@H](C)O)[C@@H](C)CC)C(=O)N[C@@H](C)C(=O)N[C@@H](CCC(N)=O)C(=O)NC(C)(C)C(=O)N[C@@H](CCC(=O)O)C(=O)N[C@@H](Cc1ccccc1)C(=O)N[C@H](C(=O)N[C@@H](CC(N)=O)C(=O)N[C@@H](Cc1c[nH]c2ccccc12)C(=O)N[C@@H](CC(C)C)C(=O)N[C@@H](CC(C)C)C(=O)N[C@@H](C)C(=O)NCC(=O)NCC(=O)N1CCC[C@H]1C(=O)N[C@@H](CO)C(=O)N[C@@H](CO)C(=O)NCC(=O)N[C@@H](C)C(=O)N1CCC[C@H]1C(=O)N1CCC[C@H]1C(=O)N1CCC[C@H]1C(=O)N[C@@H](CO)C(=O)O)C(C)C` gave a potency ratio of about 4 fold (GLP1R (Homo sapiens, UniProt P43220); cAMP, agonist; reference: compound over GLP-1 (fold weaker)).
With `NS(=O)(=O)c1ccc(NC(=O)c2ccccc2SSc2ccccc2C(=O)Nc2ccc(S(N)(=O)=O)cc2)cc1` the Hill coefficient was 1.37 (Gag-Pol polyprotein, integrase (gag-pol, Human immunodeficiency virus type 1 group M subtype B, UniProt P04585, C1427S); DNA binding, fluorescence anisotropy; HIV-1; compound:integrase ratio 3:1, with: U5 DNA, no divalent cation).
With `CC[C@H](C)[C@H](NC(=O)[C@H](CCCN)NC(=O)[C@H](CC(=O)O)NC(=O)[C@H](CC(C)C)NC(=O)C(C)(CC(C)C)NC(=O)[C@@H](NC(=O)[C@H](CO)NC(=O)[C@H](Cc1ccc(O)cc1)NC(=O)[C@H](CC(=O)O)NC(=O)[C@H](CO)NC(=O)[C@@H](NC(=O)[C@H](Cc1ccccc1)NC(=O)[C@@H](NC(=O)CNC(=O)[C@H](CCC(=O)O)NC(=O)C(C)(C)NC(=O)[C@@H](N)Cc1ccc(O)cc1)[C@@H](C)O)[C@@H](C)CC)[C@@H](C)CC)C(=O)N[C@@H](Cc1c[nH]cn1)C(=O)N[C@@H](CCC(N)=O)C(=O)NC(C)(C)C(=O)N[C@@H](CC(=O)O)C(=O)N[C@@H](Cc1ccccc1)C(=O)N[C@H](C(=O)N[C@@H](CCC(=O)O)C(=O)N[C@@H](Cc1ccc(O)cc1)C(=O)N[C@@H](CCCCNC(=O)COCCOCCNC(=O)COCCOCCNC(=O)CC[C@H](NC(=O)CCCCCCCCCCCCCCCCCCC(=O)O)C(=O)O)C(=O)N[C@@H](CC(C)C)C(=O)N[C@@H](CCC(=O)O)C(=O)NCC(=O)NCC(=O)N1CCC[C@H]1C(=O)N[C@@H](CO)C(=O)N[C@@H](CO)C(=O)NCC(=O)N[C@@H](C)C(=O)N1CCC[C@H]1C(=O)N1CCC[C@H]1C(=O)N1CCC[C@H]1C(=O)N[C@@H](CO)C(N)=O)C(C)C` (stereo partly drawn) the Emax was 101% (Gastric inhibitory polypeptide receptor (Mus musculus, UniProt Q0P543); cAMP, agonist; HEK293).
`CCCCCCCCCCCCCCCC(=O)N[C@@H](CCC(=O)NCCOCCOCCC(=O)NCCOCCOCCC(=O)NCCCC[C@H](NC(=O)[C@H](CC(=O)O)NC(=O)[C@H](CC(C)C)NC(=O)[C@H](Cc1ccc(O)cc1)NC(=O)[C@H](CCCCN)NC(=O)[C@H](CO)NC(=O)[C@H](Cc1ccc(O)cc1)NC(=O)[C@H](CC(=O)O)NC(=O)[C@H](CO)NC(=O)[C@@H](NC(=O)[C@H](Cc1ccccc1)NC(=O)[C@@H](NC(=O)CNC(=O)[C@H](CCC(N)=O)NC(=O)[C@@H](CO)NC(=O)[C@@H](N)Cc1c[nH]cn1)[C@@H](C)O)[C@@H](C)O)C(=O)N[C@@H](CCCNC(=N)N)C(=O)N[C@@H](CCCNC(=N)N)C(=O)N[C@@H](C)C(=O)N[C@@H](CCC(N)=O)C(=O)N[C@@H](CC(=O)O)C(=O)N[C@@H](Cc1ccccc1)C(=O)N[C@H](C(=O)N[C@@H](CCC(N)=O)C(=O)N[C@@H](Cc1c[nH]c2ccccc12)C(=O)N[C@@H](CC(C)C)C(=O)N[C@@H](CC(C)C)C(=O)N[C@@H](CC(N)=O)C(=O)N[C@H](C(=O)NCC(=O)NCC(=O)N1CCC[C@H]1C(=O)N[C@@H](CO)C(=O)N[C@@H](CO)C(=O)NCC(=O)N[C@@H](C)C(=O)N1CCC[C@H]1C(=O)N1CCC[C@H]1C(=O)N1CCC[C@H]1C(=O)N[C@@H](CO)C(N)=O)[C@@H](C)O)C(C)C)C(=O)O` gave a serum cholesterol of 1.41 ± 0.3 mmol/L (female Sprague-Dawley rats; subcutaneous, 20 µg/kg once daily, 14 days).
The binding enthalpy of `CC[C@H](C)[C@H](N)C(=O)N[C@@H](CC(N)=O)C(=O)N[C@@H](CC(N)=O)C(=O)N[C@H](C(=O)N1C[C@@H](n2cc([C]34[CH]5[CH]6[CH]7[CH]3[Fe]6754389%10[CH]4[CH]3[CH]8[CH]9[CH]4%10)nn2)C[C@H]1C(=O)N[C@@H](Cc1cn(C)c2ccccc12)C(N)=O)[C@@H](C)CC` (stereo partly drawn) is reported as -9.3 ± 0.8 kcal/mol (Envelope glycoprotein gp160, gp120 (env, Human immunodeficiency virus type 1 group M subtype B, UniProt P35961, S370A); ITC; concentration not given, gp120 S375A mutant).

A few entries again:
With `NS(=O)(=O)c1ccc(NC(=O)c2ccccc2SSc2ccccc2C(=O)Nc2ccc(S(N)(=O)=O)cc2)cc1` the Hill coefficient was 1.37 (Gag-Pol polyprotein, integrase (gag-pol, Human immunodeficiency virus type 1 group M subtype B, UniProt P04585, C1427S); DNA binding, fluorescence anisotropy; HIV-1; compound:integrase ratio 3:1, with: U5 DNA, no divalent cation).
